# Results from different studies.
# A part holds a random share of what one study measured. Positions count from the first letter of the parent shown.

# Series 1
# Target: ABI1, truncated, D143A, DHFR fusion (Arabidopsis thaliana)
# Method: DHFR PCA, deep sequencing
# Medium: yeast
# Notes: methotrexate growth selection, single substitutions
# With: (+)-ABA 17 µM
# Baseline: wild-type fitted maximum
# Reading: higher = stronger binding
# Starting sequence: PYL1, truncated, DHFR fusion (Arabidopsis thaliana); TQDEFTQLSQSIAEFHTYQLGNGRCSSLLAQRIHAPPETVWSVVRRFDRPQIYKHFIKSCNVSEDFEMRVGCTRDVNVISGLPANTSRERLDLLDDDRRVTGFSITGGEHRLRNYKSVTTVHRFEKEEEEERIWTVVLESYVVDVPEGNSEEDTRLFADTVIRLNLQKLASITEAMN
Change,relative binding score [%]
V145M,41.1
Q7S,83.5
T154E,-1.82
F124L,101
G148T,54.1
P37F,10
L94M,74.3
E14R,65.8
C60I,48.6
F47W,40.8
I57R,-1.57
T160V,42.8
T173I,71.1
S80F,27.3
S27W,4.4
T86Q,52.5
P83S,36.5

# Series 2
# Target: Sal-like protein 4, full length isoform A (SALL4, Homo sapiens, UniProt Q9UJQ4, residues 1-1053)
# Chain of UniProt Q9UJQ4 (whole entry, looked up): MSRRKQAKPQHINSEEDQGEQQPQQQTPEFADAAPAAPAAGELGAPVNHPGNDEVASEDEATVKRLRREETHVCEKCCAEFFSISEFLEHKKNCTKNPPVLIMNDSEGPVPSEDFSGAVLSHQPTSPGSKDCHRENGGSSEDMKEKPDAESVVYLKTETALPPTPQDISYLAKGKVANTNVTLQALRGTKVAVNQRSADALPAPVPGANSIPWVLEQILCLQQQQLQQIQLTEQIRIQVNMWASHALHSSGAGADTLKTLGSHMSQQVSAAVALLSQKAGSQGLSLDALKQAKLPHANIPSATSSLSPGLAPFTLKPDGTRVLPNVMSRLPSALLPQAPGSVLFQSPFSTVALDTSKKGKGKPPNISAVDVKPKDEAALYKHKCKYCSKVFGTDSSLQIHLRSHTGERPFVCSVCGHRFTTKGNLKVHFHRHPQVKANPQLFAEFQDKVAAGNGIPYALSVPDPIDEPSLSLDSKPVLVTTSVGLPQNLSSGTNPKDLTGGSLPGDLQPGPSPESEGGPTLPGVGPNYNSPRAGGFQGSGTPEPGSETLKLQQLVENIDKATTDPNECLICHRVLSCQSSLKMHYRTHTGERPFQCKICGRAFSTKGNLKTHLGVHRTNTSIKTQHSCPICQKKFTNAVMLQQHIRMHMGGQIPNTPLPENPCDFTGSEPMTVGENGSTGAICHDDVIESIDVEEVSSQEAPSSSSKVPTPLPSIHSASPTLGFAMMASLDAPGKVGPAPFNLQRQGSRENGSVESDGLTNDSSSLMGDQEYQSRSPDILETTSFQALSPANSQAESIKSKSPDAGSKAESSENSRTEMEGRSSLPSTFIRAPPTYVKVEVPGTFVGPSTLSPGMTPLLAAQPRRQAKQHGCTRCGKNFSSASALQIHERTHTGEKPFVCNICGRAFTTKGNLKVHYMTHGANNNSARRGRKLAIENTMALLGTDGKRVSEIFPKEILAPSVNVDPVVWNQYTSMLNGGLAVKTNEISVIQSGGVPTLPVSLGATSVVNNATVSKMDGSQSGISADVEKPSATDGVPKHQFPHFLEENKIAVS
# Method: universal PBM
# Molecule type: double-stranded DNA, one strand shown
# Medium: in vitro
# Concentration: 600 nM
# Notes: 8-mer, flanks averaged, mean of replicates
# Reading: higher = stronger binding
Strand,E-score
CCCGTAGA,-0.217
CAGTCAAG,-0.0723
AGCTACAA,0.0212
AGAGTCAG,-0.149
AGGGCTCG,-0.249
CAGAAAAC,0.00859
ACGTCTCC,-0.144
CATTACAC,0.191
GGCCTGTA,-0.214
CACCCCCA,-0.166
AGCACTCA,-0.15
CCCGGTGC,-0.375
GTAACGGA,-0.0464
GTTTTTTA,0.201
AAAGGAGG,-0.0577
AATCAAAA,0.286
AGGACCCA,-0.286
ATTGACGA,0.196
ACCGAGAA,0.0809
ACCTATCC,-0.0308
GAACCGAA,0.0316
CTTCCAGC,-0.285
AGCTTAGG,-0.131
CATTACTA,0.312
GATTGACA,0.147

# Series 3
# Target: POU domain, class 5, transcription factor 1, POU domain (Pou5f1, Mus musculus, UniProt P20263, residues 131-289)
# Chain of UniProt P20263 (131-289, looked up): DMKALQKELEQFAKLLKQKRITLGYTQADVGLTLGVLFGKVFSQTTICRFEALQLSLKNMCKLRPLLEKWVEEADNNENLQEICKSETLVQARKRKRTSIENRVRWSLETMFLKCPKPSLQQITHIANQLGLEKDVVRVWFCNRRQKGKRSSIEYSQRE
# Method: Spec-seq
# Molecule type: double-stranded DNA, one strand shown
# Medium: in vitro
# Concentration: not given
# Notes: whole probe, mean of replicates
# Baseline: not given
# Reading: lower = stronger binding
# Shared flanks, not repeated: GAGTCGTCTCGTCAGCAC … CCGTAGAGCACTCAGGTC
Strand,relative binding energy [ln ratio]
ATGCCCGT,0.796
ATGCCCAA,0.464
AGACTAAT,0.509
GAAGTAAT,0.713
ATTTTGAT,0.155
AGGTTAAT,0.641
ATGCAGGC,0.192
GCTGTAAT,0.82
ATGGTTAT,0.147
TCAGTAAT,0.652
ATGCAACC,0.0282
ATGCGTCA,0.296

# Series 4
# Target: CCNB1, cyclin fold, Cln2 fusion (human)
# Method: yeast growth competition, sequencing
# Medium: yeast
# Notes: weak parent motif
# Baseline: not given
# Reading: higher = stronger binding
# Starting sequence: GMNC docking peptide (human); KNAKRNLSSEFAN
Change,normalised enrichment score
L7Q,-0.0373
S8Y,0.271
F11V,0.281
K4Y,0.416
R5S,0.47
K4V,0.334
A12D,0.264
N6Q,0.303
N2A,0.0725
F11H,0.0933
E10Q,0.378
F11L,-0.0357
L7P,0.142
N2E,0.43
L7C,-0.311
K4F,0.0759
A12Y,0.181
N6A,-0.126
N2V,0.123
N6K,0.248
S8Q,0.459
R5K,0.341
N6Y,-0.0475
K4W,0.0601
A3K,0.268

# Repeated from above (series 1):
Change,relative binding score [%]
T173I,71.1
F124L,101
Q7S,83.5
E14R,65.8
P37F,10
L94M,74.3
T154E,-1.82
V145M,41.1
C60I,48.6
